Measurements from different studies.
A part holds a random share of what one study measured. Substitutions count along the parent as printed.

Series 1 — method: RNA Bind-n-Seq; molecule type: RNA; matrix: in vitro; tested at: 365 nM; relative to: no-protein control; direction: higher = stronger binding
Target: RNA binding protein fox-1 homolog 2, RRM domain, GST-SBP tag (RBFOX2, Homo sapiens, UniProt O43251-10, residues 100-194)
Notes: natural RNA segment, single round, ends assumed
Residues (chain): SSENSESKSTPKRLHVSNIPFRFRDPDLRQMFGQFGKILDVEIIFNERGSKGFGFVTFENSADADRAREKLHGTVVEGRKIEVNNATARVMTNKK
Strand	RBNS enrichment (R)
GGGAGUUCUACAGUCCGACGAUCAUCCAGAGGCAAACGGAGGCAAAGCUGGCUCACCUUCCGCACGCGGAUUAAUUUGCAUCUGAAAUAGGAAACAAGUGAAAGCAUAUGGGUUAGAUGUUGCCAUGUGUUUUUGGAAUUCUCGGGUGCCAA	0.59
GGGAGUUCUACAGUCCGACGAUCCUGGGGAGGUUGUGGUGCAGCUGAGUGAGGACCUGCUGUCCCAGGCAGUGAUGAUGGUGGAGAACAGCCGGCCCACAUUGGCGAUCAACCUGACCGGAGCCCGCCAGUACUGGAAUUCUCGGGUGCCAA	0.467
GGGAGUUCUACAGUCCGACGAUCUGGAAAAUGGACAAAAAAUAGAGAGAGAGGUAUUUAACUGCAAUAAACUGGCCAGUGUGGCCCCGCCUGUCUGUCUGUGUGUCCAUGUUGGGCAUGGGGUUGGGUAGGGUUGGAAUUCUCGGGUGCCAA	2.52
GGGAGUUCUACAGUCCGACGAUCGCUUCGAAGGCGAACUUACCAAGUCUCUGCAGGACAUGGAGCUACAGUCGUUGUUUGAAUCACCCGACUUCAGCAAGAUUACUGGCAAACCCGUGAAGCUCACCCAAGUGUGGAAUUCUCGGGUGCCAA	0.339
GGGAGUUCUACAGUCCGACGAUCACCUUCAAGCACCCUGUUCCCUCUUUCUUUCUUUUGUGUUGGAUUUGUUUAAAAACCAAAUAAGCAUCUGUGUAACCUCCACAGUAGCAUUUCUUAUUUGUUUGGUCACUUGGAAUUCUCGGGUGCCAA	2.33
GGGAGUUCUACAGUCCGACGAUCUUUCUGUUAAUAUAUAGAAAAAUACACAGGAGAACAUGCAGAUACAUGUAAAUAUCUACAUACAGGGAUAUUUGUAUGUGUGGUUGUGAAACCCAUACACAAGUGGAUUUUGGAAUUCUCGGGUGCCAA	0.308
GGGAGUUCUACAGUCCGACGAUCACUCCAGCGGCCCUGGCGCGUGGCUCCUGCAUAGCUAGCCCAAGCCAAUAAAGGGCUGUGAUGAGUGGCUGCGCCUGUGCUCUGCUUGUGCACGGACUCUGGGACUCUCAUGGAAUUCUCGGGUGCCAA	0.258
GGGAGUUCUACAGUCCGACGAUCACACUGUGGAAUUUCUUCAAGGGAGCUGCCGGCCGGCGCAGAACCCCCAGGAGCACAGGUCUCUCCGGGCCGCUGUCCUGCGUAACUGUUCUCCAGAGCGCCAGCCAGCCUGGAAUUCUCGGGUGCCAA	0.314
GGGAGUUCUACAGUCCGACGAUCGCAGUGUCUAAACCCCCGGAGCCAUCUUGCUGCCGACACCCUGCUUUCCCCUCGCCCUAGGGCUCCCUUGCCGCCCUCCUGCAGUAUUUAUGGCCUCGUCCUCCCCACCUUGGAAUUCUCGGGUGCCAA	0.651
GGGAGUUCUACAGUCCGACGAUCUUGUACUGUGGCCACGAUUUGUCCCCGUGAUGAUUCUUGGGUCUAGAUUGUGAGUUCUUCAAGGGCAGGCUCAUCUCCUGCACAUCUUUCUACUUCUCUACAGCAGCUGUUGGAAUUCUCGGGUGCCAA	0.252
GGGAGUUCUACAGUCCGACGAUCAUGUGCUCAGCUGGGGGUGUGGACAGGUAGGGGUGGGGAAAGAAGAGGCUCUGCGUUCUGGGGGCUUUUUCUUCUCCUCCCCCUACCCGGUUUCCCUCCCUGUUUUCCUAUGGAAUUCUCGGGUGCCAA	0.22
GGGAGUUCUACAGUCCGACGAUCGUGUAUUUUAGAAAUUACCUGAAGUGAAGCUAUCACGAAGUGAGUGUAUCACCUGGUGAGCGAGUGACUGAAACCUGCUCUGGUCUGGGUUUGACCAGGUUAGGACUAUUUGGAAUUCUCGGGUGCCAA	0.24

Series 2 — target: UBE2U UBC core domain (UniProt Q5VVX9); method: yeast two-hybrid; matrix: yeast; notes: mostly zero background; relative to: not given; direction: higher = stronger interaction
B1: TRIM35 RING domain (UniProt Q9UPQ4); chain PSRSFKEELLCAVCYDPFRDAVTLRCGHNFCRGCVSRCWEVQVSPTCPVCKDRASPADLRT
B2: TRIM3 RING domain (UniProt O75382); chain VQPMDKQFLVCSICLDRYQCPKVLPCLHTFCERCLQNYIPAQSLTLSCPVCRQTSILPEQGV
B3: NSMCE1 RING domain (UniProt Q8WV22); chain RETYPDAVKICNICHSLLIQGQSCETCGIRMHLPCVAKYFQSNAEPRCPHCNDYWPHEIPKV
B4: PHF7 RING domain (UniProt Q9BWX1); chain IQHGHVGEESCILCCEDLSQQSVENIQSPCCSQAIYHRKCIQKYAHTSAKHFFKCPQCNNRKEFPQEML
B5: PEX2 RING domain (UniProt P28328); chain DNTLATSGKECALCGEWPTMPHTIGCEHIFCYFCAKSSFLFDVYFTCPKCGTEVHSLQPLK
B6: RNF14 RING domain (UniProt Q9UBS8); chain IKCFNSKLFLCSICFCEKLGSECMYFLECRHVYCKACLKDYFEIQIRDGQVQCLNCPEPKCPSVATPGQVK
B7: RNF4 RING domain (UniProt P78317); chain TGLRPSGTVSCPICMDGYSEIVQNGRLIVSTECGHVFCSQCLRDSLKNANTCPTCRKKINHKRYHP
B8: RFPL2 RING domain (UniProt O75678); chain MAALFQEASSCPVCSDYLEKPMSLECGCAVCLKCINSLQKEPHGEDLLCCCSSMVSRKNKIRR
Construct (chain): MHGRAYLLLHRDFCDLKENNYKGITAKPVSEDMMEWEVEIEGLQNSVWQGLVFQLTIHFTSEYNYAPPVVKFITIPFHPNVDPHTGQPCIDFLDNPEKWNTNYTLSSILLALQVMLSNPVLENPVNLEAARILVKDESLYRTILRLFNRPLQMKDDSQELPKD
Molecule	lacZ reporter activity
B1 (TRIM35 RING domain)	10500
B2 (TRIM3 RING domain)	13700
B3 (NSMCE1 RING domain)	13200
ISNDSETLEECMVCSDMKRDTLFGPCGHIATCSLCSPRVKKCLICKEQVQSRTKIE (MIB1 RING domain (UniProt Q86YT6))	13200
B4 (PHF7 RING domain)	4470
B5 (PEX2 RING domain)	8240
B6 (RNF14 RING domain)	5790
FLKKLEQSFMCVCCQELVYQPVTTECFHNVCKDCLQRSFKAQVFSCPACRHDLGQNYIMI (UHRF2 RING domain (UniProt Q96PU4))	14600
B7 (RNF4 RING domain)	0
B8 (RFPL2 RING domain)	0
SYEDKSNDFVCPICFDMIEEAYMTKCGHSFCYKCIHQSLEDNNRCPKCNYVVDNIDHLY (COP1 RING domain (UniProt Q8NHY2))	0

Series 3 — method: DHFR PCA, deep sequencing; matrix: yeast; added: (+)-ABA 0.0091 µM; relative to: wild-type fitted maximum; direction: higher = stronger binding
Target: ABI1, truncated, D143A, DHFR fusion (Arabidopsis thaliana)
Notes: methotrexate growth selection, single substitutions
Starting sequence: PYL1, truncated, DHFR fusion (Arabidopsis thaliana); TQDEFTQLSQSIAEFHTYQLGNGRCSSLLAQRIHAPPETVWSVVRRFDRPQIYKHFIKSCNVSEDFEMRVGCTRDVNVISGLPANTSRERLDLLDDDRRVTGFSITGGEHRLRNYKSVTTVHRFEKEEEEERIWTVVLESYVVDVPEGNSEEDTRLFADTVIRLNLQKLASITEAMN; partner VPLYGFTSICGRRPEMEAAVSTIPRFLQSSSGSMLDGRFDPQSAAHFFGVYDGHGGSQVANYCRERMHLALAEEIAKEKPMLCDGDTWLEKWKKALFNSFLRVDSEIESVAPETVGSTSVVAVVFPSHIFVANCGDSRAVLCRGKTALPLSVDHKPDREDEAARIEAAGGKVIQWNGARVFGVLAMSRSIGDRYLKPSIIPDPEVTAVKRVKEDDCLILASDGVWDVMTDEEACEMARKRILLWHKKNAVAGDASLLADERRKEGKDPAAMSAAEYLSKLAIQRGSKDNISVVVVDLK
Substitution	relative binding score
A30F	17.2%
N61K	55.3%
S42A	31.8%
E4R	-0.422%
S150C	15.9%
F103E	-2.38%
T1M	46.6%
I57F	-5.33%
F56P	-6.23%
L28I	71.1%
L20N	28.7%
M176N	3.81%
L93D	-7.96%
D3C	13.7%
R163E	10%
H110T	47.7%
E127T	42.2%
S140A	2.9%
D96Y	-1.38%
S104M	-0.511%
T119N	-8.76%
T120G	-11.9%
R45T	7.02%
K58Y	1.84%
L112Y	4.66%

Series 4 — method: protein binding microarray; molecule type: double-stranded DNA, one strand shown; matrix: in vitro; tested at: not given; relative to: not given; direction: higher = stronger binding
Target: Histone acetyltransferase KAT6A, winged helix 2, GST fusion (KAT6A, Homo sapiens, UniProt Q92794, residues 85-181)
Notes: 8-mer, flanks averaged, mean of 2 arrays, mostly near background
Construct (chain): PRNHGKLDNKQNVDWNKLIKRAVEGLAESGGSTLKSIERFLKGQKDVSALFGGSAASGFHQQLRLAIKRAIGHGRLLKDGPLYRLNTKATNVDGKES
Strand	E-score
ACCTTACG	-0.00069
GAAGTGGC	-0.0423
ACTGCTGC	0.0287
AATAGCTA	0.011
ATCCTAAC	-0.00602
AATGCTGA	-0.00511
AAAGAGCG	-0.0991
CTGTAGCA	-0.13
AATGGTAC	-0.125
CACGTAGG	-0.178
AACGTACT	-0.153
AAATGGTT	-0.113
ATCTTTCA	-0.0903
ATGCTACG	0.0715
CCGTAAAA	0.122
ATTTGCGC	0.103
CCAATTAA	-0.0225
CAATGGAC	0.0215
ACTGGTCC	-0.0769

Series 5 — target: CCNF, cyclin fold, Cln2 fusion (human); method: yeast growth competition, sequencing; matrix: yeast; notes: strong parent motif; relative to: not given; direction: higher = stronger binding
Starting sequence: BORA docking peptide (human); SSLRRKLFLDGNG
Substitution	normalised enrichment score
N12A	6.27
R5K F8L	0.936
F8L	3.57
D10A	1.9
R5A L7A	-0.227
G13A	4.92
R5K	1.37
S2A	5.41
L3A	8.26
L9A	4.98
S1A	5

Repeated from above (series 2):
Molecule	lacZ reporter activity
B1 (TRIM35 RING domain)	10500
B2 (TRIM3 RING domain)	13700
B3 (NSMCE1 RING domain)	13200
ISNDSETLEECMVCSDMKRDTLFGPCGHIATCSLCSPRVKKCLICKEQVQSRTKIE (MIB1 RING domain (UniProt Q86YT6))	13200
B4 (PHF7 RING domain)	4470
B5 (PEX2 RING domain)	8240
B6 (RNF14 RING domain)	5790
FLKKLEQSFMCVCCQELVYQPVTTECFHNVCKDCLQRSFKAQVFSCPACRHDLGQNYIMI (UHRF2 RING domain (UniProt Q96PU4))	14600
B7 (RNF4 RING domain)	0
B8 (RFPL2 RING domain)	0
SYEDKSNDFVCPICFDMIEEAYMTKCGHSFCYKCIHQSLEDNNRCPKCNYVVDNIDHLY (COP1 RING domain (UniProt Q8NHY2))	0
